# Measured values gathered from unrelated publications.
# Lines come from different studies, so protocols differ. “And” joins repeats or separate records; there may be more than shown. ± marks the error that the study gave.
# Cell line: MDCK
Structure (SMILES),read-out,concentration,time,pH,notes,measurement,value
CC(=O)Nc1ccc(O)cc1,permeability basolateral to apical,1 µM,90 min,pH 6.5 apical to 7.4 basolateral,,Papp,8.98 ×10⁻⁶ cm/s and 15.2 ×10⁻⁶ cm/s
O=C1O[C@H]([C@@H](O)Cn2ccnn2)C(OCc2ccccc2)=C1OCc1ccccc1,cell morphology,,,,,minimum cytotoxic concentration,> 100 µM
C[C@@H]1COCCN1c1nc(-c2cnc(N)s2)nc2c1C[C@@H]1COCCN21,,1 µM,20 (unit not given),,,Papp B to A,19.6 ×10⁻⁶ cm/s
COc1cc(N2CCC(N3CCN(C)CC3)CC2)ccc1Nc1ncc(Cl)c(Nc2ccccc2P(C)(C)=O)n1,,,,,,Papp,2.57 ×10⁻⁶ cm/s
C[C@@H]1COCCN1c1nc(-c2cnc(N)cn2)nc2c1C[C@@H]1COCCN21,,1 µM,20 (unit not given),,,Papp A to B,55.9 ×10⁻⁶ cm/s
Cn1cc(-c2cccc(N3CCc4c(sc5c4CCCC5)C3=O)c2CO)cc(Nc2ccncn2)c1=O,,10 µM,3 h,,,apparent permeability B-A,13.2 ×10⁻⁶ cm/s
C[C@@H](c1ncncc1F)[C@](O)(Cn1cncn1)c1ccc(F)cc1F,,1 µM,90 min,"pH 7.4 apical, 7.4 basolateral",basolateral to apical,mass recovery,108 ± 6%
Cn1cc(-c2cccc(N3CCOc4cc(C(C)(C)C)ccc4C3=O)c2CO)cc(Nc2ccncn2)c1=O,,10 µM,3 h,,,apparent permeability B-A,5.9 ×10⁻⁶ cm/s
CC(=O)N[C@@H](CS)C(=O)O,,,,,,Papp,134 ×10⁻⁶ cm/s
CC(=O)N[C@H]1[C@H]([C@H](O)[C@H](O)CO)OC(C(=O)O)=C[C@@H]1N=C(N)N,cell morphology,,,,,minimum cytotoxic concentration,> 100 µM
Nc1cc(C(F)(F)F)c(-c2nc(N3CCOCC3)nc(N3CCOCC3)n2)cn1,,1 µM,20 (unit not given),,,Papp B to A,129 ×10⁻⁶ cm/s
CC(C)n1nccc1-c1ncccc1COc1cccc(O)c1C=O,,1 µM,90 min,"pH 7.4 apical, 7.4 basolateral",,Papp A to B,23.5 ×10⁻⁶ cm/s and 32 ×10⁻⁶ cm/s
N[C@@H](CC(=O)N1CCn2c(nnc2C(F)(F)F)C1)Cc1cc(F)c(F)cc1F,,,,,,Papp,4.75 ×10⁻⁶ cm/s
Cn1cc(-c2cccc(N3CCc4cc(C(C)(C)C)ccc4C3=O)c2CO)cc(Nc2ccncn2)c1=O,,10 µM,3 h,,,apparent permeability A-B,1.5 ×10⁻⁶ cm/s
C[C@@H]1COCCN1c1nc(-c2nnc(N)s2)nc2c1C[C@@H]1COCCN21,,1 µM,20 (unit not given),,,Papp B to A,16.4 ×10⁻⁶ cm/s
Cn1cc(-c2cccc(N3CCn4c(cc5c4CCCC5)C3=O)c2CO)cc(Nc2ccncn2)c1=O,,10 µM,3 h,,,apparent permeability B-A,19.1 ×10⁻⁶ cm/s
OC[C@@H](O)[C@@H](O)[C@H](O)[C@H](O)CO,permeability,,,,,Papp,1.51 ± 0.267 ×10⁻⁶ cm/s
Cc1c(-c2cc(Nc3ccncn3)c(=O)n(C)c2)cccc1N1CCc2c(sc3c2CCCC3)C1=O,,10 µM,3 h,,,apparent permeability B-A,10.7 ×10⁻⁶ cm/s
CCn1c(=O)c2c(nc(/C=C/c3ccc(OC)c(OC)c3)n2C)n(CC)c1=O,,1 µM,90 min,"pH 7.4 apical, 7.4 basolateral",basolateral to apical,mass recovery,88 ± 12%

# Some of these lines once more:
Structure (SMILES),read-out,concentration,time,pH,notes,measurement,value
CC(C)n1nccc1-c1ncccc1COc1cccc(O)c1C=O,,1 µM,90 min,"pH 7.4 apical, 7.4 basolateral",,Papp A to B,23.5 ×10⁻⁶ cm/s and 32 ×10⁻⁶ cm/s
N[C@@H](CC(=O)N1CCn2c(nnc2C(F)(F)F)C1)Cc1cc(F)c(F)cc1F,,,,,,Papp,4.75 ×10⁻⁶ cm/s
